Published values collected from several papers.
Every numbered part comes from another study and shows a few of its results, in no order. Positions count from the first letter of the parent shown.

Study 1
Target: Fragile X messenger ribonucleoprotein 1, C-terminal low-complexity region (Fmr1, Mus musculus, UniProt P35922)
Method: RNA Bind-n-Seq
Molecule type: RNA
Matrix: in vitro
Concentration: 200 nM
Notes: whole 134-nt RNA, ends assumed
Together with: 150 mM LiCl
Relative to: input library
Reading: higher = stronger binding
Each molecule: 7-deaza-guanosine replaces G
Constant ends, left off below: GGGAGUUCUACAGUCCGACGAUC … UGGAAUUCUCGGGUGUCAAGG
| Strand | log2 enrichment |
| --- | --- |
| CAAGUCCUGUGCUACACAUCGUAUGUACCGAAUCGGGGUUUUGGUUUUGGUUUUGGAAAGUAUUAUGUUACGCCGUUCGGAUCUGCACUU | -2.04 |
| CUGUGCUACACAUCGUAUGUACCGAAUCGGGUUUUUUUGGUUUUUUUGGGGUUUUUUUGGGAAAGUAUUAUGUUACGCCGUUCGGAUCUG | 0.392 |
| UGGGAGGUCGAUUUUGUUUAUUUUUUUAGCUCAUUUCCAGGGGUGGGAAUUUUUUUUUAAUAUGUGUCAUGAAUAAAGUUGUUUUUGAAA | 0.925 |
| UGUGCUACACAUCGUAUGUACCGAAUCGGGUUUUUUUGGGGUUUUUUUGGGGUUUUUUUGGGAAAGUAUUAUGUUACGCCGUUCGGAUCU | 1.44 |
| ACCAUGCAGGUGGGCAUCUUUGGGAAGUGGGGCAAGGGGGGGAUAGGGAGGGGAAAAACACUUUGGGAACAGGUGGUCCCAGGUCGUUUC | 1.16 |
| UGGCCCUGGUGGCAUGCGGGGAGGAAGAGGUGGCUUCAUGGAUCGUGGUGGUCCCGGUGGAAUGUUCAGAGGUGGCCGUGGUGGAGACAG | 0.167 |
| GUCCUGUGCUACACAUCGUAUGUACCGAAUCGGGGUGGGGAAAGGGGUUUUUUUGGGGAAAGUAUUAUGUUACGCCGUUCGGAUCUGCAC | 0.745 |
| CAAGUCCUGUGCUACACAUCGUAUGUACCGAAUCGGGUUUGGGGUUUGGUUUGGGGAAAGUAUUAUGUUACGCCGUUCGGAUCUGCACUU | -1.62 |
| ACCAUGCAGGUGGGCAUCUUUGGGAAGUGGGGCAAGGGGGGGAUAGGGAAGGGGGUAACACUUUGGGAACAGGUGGUCCCAGGUCGUUUC | 1.08 |
| CAAGUCCUGUGCUACACAUCGUAUGUACCGAAUCGGGGUGGGGUGGGGAAAGGGGAAAGUAUUAUGUUACGCCGUUCGGAUCUGCACUUC | -0.757 |
| CUGUGCUACACAUCGUAUGUACCGAAUCGGCCCCCCCGGCCCCCCCGGGGCCCCCCCGGGGAAAGUAUUAUGUUACGCCGUUCGGAUCUG | 0.284 |

Study 2
Target: Interferon regulatory factor 7, full length, phosphomimetic (IRF7, Homo sapiens, UniProt Q92985, residues 1-503, S471D/S472D/S475D/S476D/S477D/S483D/S484D/S487D)
Method: protein-binding microarray
Molecule type: double-stranded DNA, one strand shown
Matrix: in vitro
Concentration: 2200 nM top
Notes: 60-bp whole probe
Together with: salmon DNA 0.4 mg/ml
Relative to: random background probes
Reading: higher = stronger binding
Constant ends, left off below: GCCTAGCAC … GTCTTGATTCGCTTGACGCTGCTG
Construct (chain): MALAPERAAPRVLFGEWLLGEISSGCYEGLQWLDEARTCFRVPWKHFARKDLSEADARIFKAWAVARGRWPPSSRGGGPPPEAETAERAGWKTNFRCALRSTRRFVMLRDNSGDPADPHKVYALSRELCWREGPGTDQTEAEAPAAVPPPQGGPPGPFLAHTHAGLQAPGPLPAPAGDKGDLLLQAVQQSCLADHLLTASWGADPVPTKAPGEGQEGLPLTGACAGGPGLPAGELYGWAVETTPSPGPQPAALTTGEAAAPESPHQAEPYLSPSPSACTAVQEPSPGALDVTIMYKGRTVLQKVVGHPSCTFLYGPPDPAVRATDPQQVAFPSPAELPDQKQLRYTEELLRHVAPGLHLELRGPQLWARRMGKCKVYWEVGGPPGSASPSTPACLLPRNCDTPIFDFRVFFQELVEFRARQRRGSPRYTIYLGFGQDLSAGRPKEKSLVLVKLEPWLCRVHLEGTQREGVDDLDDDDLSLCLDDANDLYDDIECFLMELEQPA
| Strand | fitted relative affinity [z-score] |
| --- | --- |
| TTAGGTAGCGGTATCGGTTAGTGCTAG | -0.169 |
| GACGGACTGGGGTTTCAGGACGTGCTA | -0.479 |
| GGCCATTTCCCTTGCCGCGCGTGCTAG | 0.322 |
| TCAAGGTTCTCTTTTATACTGTGCTAG | 0.749 |
| TCATTTTTTTTTTTTTAACTGTGCTAG | 1.76 |
| TACGGTTTCGGGTTTCGGGACGTGCTA | 10.1 |
| TCACCTGTCTACATGGGACTGTGCTAG | 0.942 |
| TTAGGTTTCGACACTGAGTTAGTGCTA | 1.95 |
| TTCGATCTCAGACTGGATTAGTGCTAG | 0.597 |
| AATGCCCTCGGTTTACAGGGGTGCTAG | 2.58 |
| TGTGATCTCATATGAAAACAGTGCTAG | 0.515 |
| GACGGTATCAGGACTGGGGACGTGCTA | -0.465 |
| TTAGGTATCGGTCTCGGCTAGTGCTAG | 0.472 |
| AGTAGCTGGGATTACAGGCAGTGCTAG | -0.747 |
| GACGGATTCCTTATCCTGACGTGCTAG | 1.34 |
| TGAGGACTGGGTCTCGGTTAGTGCTAG | -0.67 |
| TGAGGTTTCGGTTCCGGTTAGTGCTAG | 10.5 |

Study 3
Target: ABI1, truncated, D143A, DHFR fusion (Arabidopsis thaliana)
Method: DHFR PCA, deep sequencing
Matrix: yeast
Notes: methotrexate growth selection, single substitutions
Together with: (+)-ABA 1.4 µM
Relative to: wild-type fitted maximum
Reading: higher = stronger binding
Starting sequence: PYL1, truncated, DHFR fusion (Arabidopsis thaliana); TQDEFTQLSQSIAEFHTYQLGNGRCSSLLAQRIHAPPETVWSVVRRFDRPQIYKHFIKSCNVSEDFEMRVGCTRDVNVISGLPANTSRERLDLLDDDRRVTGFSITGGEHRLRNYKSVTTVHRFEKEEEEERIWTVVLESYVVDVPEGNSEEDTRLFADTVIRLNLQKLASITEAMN; partner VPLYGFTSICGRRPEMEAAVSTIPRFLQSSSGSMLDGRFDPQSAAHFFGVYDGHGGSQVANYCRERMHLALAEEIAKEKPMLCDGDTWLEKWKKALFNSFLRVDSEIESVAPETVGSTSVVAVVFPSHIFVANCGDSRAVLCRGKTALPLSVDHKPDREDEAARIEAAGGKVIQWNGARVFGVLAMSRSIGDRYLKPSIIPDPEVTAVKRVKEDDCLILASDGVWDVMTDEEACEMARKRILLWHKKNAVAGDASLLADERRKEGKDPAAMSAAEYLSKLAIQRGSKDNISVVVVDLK
| Variant | relative binding score [%] |
| --- | --- |
| I105M | 7.42 |
| G148H | 11 |
| N61V | 71.4 |
| N165F | -1.17 |
| I133Q | 77.2 |
| I57H | -11.2 |
| S87D | -0.675 |
| L28V | 56.8 |
| L82Q | 19.2 |
| R88I | 69.4 |
| Q19M | 31.7 |
| L169V | -5.54 |
| A35I | -15.7 |
| G107I | -7.87 |
| D65T | 34.6 |
| K54R | 7.98 |

Study 4
Target: CCNA1, cyclin fold, Cln2 fusion (human)
Method: yeast growth competition, sequencing
Matrix: yeast
Notes: weak parent motif
Relative to: not given
Reading: higher = stronger binding
Starting sequence: CENPC docking peptide (human); VKTKKRLNFDDKV; partner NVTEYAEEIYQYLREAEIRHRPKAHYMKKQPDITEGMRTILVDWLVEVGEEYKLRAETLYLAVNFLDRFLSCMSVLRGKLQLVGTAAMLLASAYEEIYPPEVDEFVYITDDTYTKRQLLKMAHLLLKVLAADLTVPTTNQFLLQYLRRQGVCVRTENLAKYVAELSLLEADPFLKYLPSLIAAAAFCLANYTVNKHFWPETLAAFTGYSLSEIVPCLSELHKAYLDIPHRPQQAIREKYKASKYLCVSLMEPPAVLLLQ
| Variant | normalised enrichment score |
| --- | --- |
| VKTKARANFDDKV [K5A L7A] | 0.163 |
| VKTKKRLNLDDKV [F9L] | -0.0789 |
| VKTKKALNFDDKV [R6A] | 0.268 |
| VKTAKRLNFDDKV [K4A] | 0.174 |
| VKTKARLNFDDKV [K5A] | 0.427 |
| VATKKRLNFDDKV [K2A] | 0.517 |
| VKTKRRLNLDDKV [K5R F9L] | 0.386 |
| VKTKKRLAFDDKV [N8A] | 0.372 |
| VKAKKRLNFDDKV [T3A] | 0.588 |
| VKTKKRLNFDAKV [D11A] | 0.439 |

Study 5
Target: RING finger protein unkempt homolog, zinc fingers 1-6, GST-SBP tag (UNK, Homo sapiens, UniProt Q9C0B0, residues 30-357)
Chain of UniProt Q9C0B0 (30-357, looked up): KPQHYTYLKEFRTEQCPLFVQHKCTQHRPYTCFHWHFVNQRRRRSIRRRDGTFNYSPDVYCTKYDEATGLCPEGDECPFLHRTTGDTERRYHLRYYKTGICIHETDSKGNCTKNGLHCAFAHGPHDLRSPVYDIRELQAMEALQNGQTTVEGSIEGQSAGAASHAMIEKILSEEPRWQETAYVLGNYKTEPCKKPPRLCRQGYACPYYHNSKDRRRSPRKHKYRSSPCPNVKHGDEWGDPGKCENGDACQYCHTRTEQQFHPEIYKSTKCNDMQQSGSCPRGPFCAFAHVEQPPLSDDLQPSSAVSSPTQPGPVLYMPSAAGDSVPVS
Method: RNA Bind-n-Seq
Molecule type: RNA
Matrix: in vitro
Concentration: not given
Notes: RNA with constant flanks, human and mouse sites, ends assumed
Relative to: input RNA pool
Reading: higher = stronger binding
Constant ends, left off below: GGGAGUUCUACAGUCCGACGAUC … CAACAGAGGAUUGAGCAUCA
| Strand | bound/input enrichment [ratio] |
| --- | --- |
| UUAAUUAAAGAAACAAAGCUCUCCACUGAGCCAAGUCCAGAGUUCUCUAAUUAUUCAGAAAUAGCAAAAUUUGAGAAGUCGGUGCCUGAUCACUGUGAGCUCGUGGAUGAUUCCUCACCC | 0.732 |
| ACACACACACACACUCUCUGAGCACAUUAUCUGUGAUUCUUUCAUCCUCCCAGAAAGGAUCAGUGUUAGAAUGGGAAAUAGAGUGUGCCAUCUUGCUCUUUUGUUGGCAGAUGUCCCCGC | 0.759 |
| AUGCUCUAACUGGACAUGAAGGAAAGGGGCGAGGGAGGGGGGUGGGAUUUUUGGUGCAAGUAGCACAUGGUUUAAAUAUGAAUGAACAAACCUGUGAUCUAGUCCUUGUCUUGUAAUUGU | 0.313 |
| AGUCCUCAACGUGUUCUAGCUUGUGAUCCUUCAAAGAUGGGUUAUGUGUUAAUGAUAGGUACUAGAAAUGUUUACUUCUCUCUUUCCACUGAUCAGAGAAACAGGCAUUAAAGACAGAAU | 0.338 |
| AACAUUUUUGUCAGGAUUAUUUCCCGUAAAAACGUAGUGAGCACUUUUCAUAUACUAAUUUAGUUGUACAUUUAACUUUGUAUAAUACAGAAAUCUAAAUAUAUUUAAUGAAUUCAAGCA | 3.74 |
| UUUGUUACCUCCCCAAGCCCUGAUAACCUCCAUACUCUGUUUGAAUUUGUAUUUAAAGGAUUUGAUGCUCUGCAAUAUCAGGAACAUCUGGAUUAUGAGAUUAUCCAGUCUCUAAAUCCU | 0.642 |
| UUUAGAUUGAUCUUUCAAAACUGUGCUGAAUUCAAUGAGCCUGAUUCUGAAGUAGCCAAUGCUGGUAUAAAACUUGAAAGCUAUUUUGAAGAACUUCUAAAGAAUCUUUAUCCAGAAAAA | 0.163 |
| GUUAUUUUCAUGUGGUCAUUGCUGGCCCUCAGGAUUCCCCCUUUGAGGGAGGGACUUUUAAACUUGAACUAUUCCUUCCAGAAGAAUACCCAAUGGCAGCCCCUAAAGUACGUUUCAUGA | 0.216 |
| UUCUUUGGUCCACUUUUUGAUGGUGCUAUUGUGAAUGGAAAAGUUCUGCCCAUUAUGGUUCGAUCCACAGCAAUAAAUGCUAGCCGUGCUCUGAAAUCACUGAUUCCAUUGUAUCAAAAU | 0.13 |
| AGGUCAGUGUACCAAGACAAUGAAAGCGAAGCAGGCAAGAACACCAUUGACUACAUCUACAACACGCGACUAAGCCGGGGCGAGUACGUGGACGUUCCUUUUCCCAACCAGUACCAGUAU | 0.215 |
| AUGACCCUUGGACAGCAGGAUGUUUCCAAAGUCCUGCUAGGCCCUCUCUCUCCCUACACGAUAGAAUUUUUGCGGCAUUUGAAGAGCUUUUUCCAGAUUAUGUUUAAAAUUGAAACCAAG | 3.94 |

Single results of other studies
| Molecule | target | test | test system | setting | how to read | endpoint | result |
| --- | --- | --- | --- | --- | --- | --- | --- |
| PhoQ, residues 284 288 289 292 302 303 TNSAEL | PhoP, residues 12 14 15 18 19 GHCSL (Escherichia coli, UniProt P23836) | Sort-seq, measured: YFP reporter | E. coli | PhoQ-PhoP variant library, together with: 10 µM Mg2+ | relative to: high Mg2+ state, higher = stronger signaling | fold induction | 12 |

For quick reference, copied from above (study 3):
| Variant | relative binding score [%] |
| --- | --- |
| I105M | 7.42 |
| G148H | 11 |
| N61V | 71.4 |
| N165F | -1.17 |
| I133Q | 77.2 |
| I57H | -11.2 |
